Earlier results that unrelated publications cite.
Compare with care: the assays were run in different laboratories. ± marks the error that the study gave. Converted amounts (≈) assume the structure as drawn.

For CN(CCOc1ccc(CC2SC(=O)NC2=O)cc1)c1ccccn1 (centres unmarked), the unbound fraction was 0.14 to 0.18 (rapid equilibrium dialysis; hepatocyte culture medium).
Clc1ccc(C(Cn2ccnc2)OCc2ccsc2Cl)c(Cl)c1 (centres unmarked) gave a logP of 4.4.
The hemolysis of CC[C@H](C)[C@H](NC(=O)[C@H](CCCCN)NC(=O)[C@H](CCCCN)NC(=O)[C@H](Cc1ccccc1)NC(=O)[C@H](CC(C)C)NC(=O)[C@H](CCCCN)NC(=O)[C@H](CCCCN)NS(=O)(=O)c1ccc(C)cc1)C(=O)N[C@@H](CC(C)C)C(=O)N[C@@H](CCCCN)C(=O)N[C@@H](CCCCN)C(=O)N[C@@H](CC(C)C)C(N)=O is reported as 8 ± 1.6% (horse erythrocytes 5 % v/v; 150 µM).
Cc1ccccc1-c1cc(N2CCN(C)CC2)ncc1N(C)C(=O)C(C)(C)c1cc(C(F)(F)F)cc(C(F)(F)F)c1 gave a half-life of 90.4 h (healthy volunteers, plasma; oral, 450 mg, single dose, given alone).
Cc1cn([C@H]2C=C[C@@H](CO)O2)c(=O)[nH]c1=O gave an aqueous solubility of 1.96 log mg/mL (water; hydrate).
The AUC(0-inf) of O=C1c2cccc3c2[C@H](CCC3)CN1[C@@H]1CN2CCC1CC2 is reported as 70.8 ng ⋅ h/mL (healthy volunteers; oral, 0.75 mg single dose, mean).
CN1CC[C@H](c2c(O)cc(O)c3c(=O)cc(-c4ccccc4Cl)oc23)[C@H](O)C1 gave a clearance of 31.4 ± 5.4 L/h (human).
For CC[C@H](C)[C@H](NC(=O)[C@H](Cc1ccccc1)NC(=O)[C@H](CCC(=O)O)NC(=O)[C@H](CCCCNC(=O)COCCOCCNC(=O)COCCOCCNC(=O)CC[C@H](NC(=O)CCCCCCCCCCCCCCCCC(=O)O)C(=O)O)NC(=O)[C@H](C)NC(=O)[C@H](C)NC(=O)[C@H](CCC(N)=O)NC(=O)CNC(=O)[C@H](CCC(=O)O)NC(=O)[C@H](CC(C)C)NC(=O)[C@H](Cc1ccc(O)cc1)NC(=O)[C@H](CO)NC(=O)[C@H](CO)NC(=O)[C@@H](NC(=O)[C@H](CC(=O)O)NC(=O)[C@H](CO)NC(=O)[C@@H](NC(=O)[C@H](Cc1ccccc1)NC(=O)[C@@H](NC(=O)CNC(=O)[C@H](CCC(=O)O)NC(=O)C(C)(C)NC(=O)[C@@H](N)Cc1cnc[nH]1)[C@@H](C)O)[C@@H](C)O)C(C)C)C(=O)N[C@@H](C)C(=O)N[C@@H](Cc1c[nH]c2ccccc12)C(=O)N[C@@H](CC(C)C)C(=O)N[C@H](C(=O)N[C@@H](CCCNC(=N)N)C(=O)NCC(=O)N[C@@H](CCCNC(=N)N)C(=O)NCC(=O)O)C(C)C, “absorption rate constant” read 0.0286 h⁻¹ (population PK model; human; fixed value).
CC[C@H](C)CCCCC(=O)N[C@@H](CCN)C(=O)N[C@H](C(=O)N[C@@H](CCN)C(=O)N[C@H]1CCNC(=O)[C@H]([C@@H](C)O)NC(=O)[C@H](CCN)NC(=O)[C@H](CCN)NC(=O)[C@H](CC(C)C)NC(=O)[C@@H](Cc2ccccc2)NC(=O)[C@H](CCN)NC1=O)[C@@H](C)O gave a total clearance of 2.37 L/h (population PK model; critically ill patients; intravenous, typical value).
For CNCc1ccc(-c2cc(-c3nc(-c4ccc(S(=O)(=O)C(C)C)cc4)cnc3N)on2)cc1, the bile concentration was 9 µg/mL (HPLC-UV; rat, bile; intravenous infusion, 10 mg/kg).
O[C@@H](COc1cccc2ncccc12)CN1CCN([C@@H]2c3ccccc3[C@@H]3[C@H](c4ccccc42)C3(F)F)CC1 gave a half-life of 6 to 24 h (human; dose not given).
The Cmax of C#Cc1cccc(Nc2ncnc3cc(OCCOC)c(OCCOC)cc23)c1 is reported as 13.8 µM (plasma; concentration not given).
For C[C@H](N[C@@H](CCc1ccccc1)C(=O)O)C(=O)N1CCC[C@H]1C(=O)O, the logD was -1 (n-octanol/water; pH 6.5).
The Cmax of CNC(C)C1CCC(N)C(OC2C(N)CC(N)C(OC3OCC(C)(O)C(NC)C3O)C2O)O1 (centres unmarked) is reported as 13 µM (plasma; concentration not given).
CC[C@H](C)[C@H](NC(=O)[C@@H](NC(=O)[C@@H](NC(=O)CNC(=O)CNC(=O)[C@@H](NC(=O)[C@H](CCSC)NC(=O)[C@H](CC(C)C)NC(=O)CN)C(C)C)C(C)C)C(C)C)C(=O)N[C@@H](C)C(=O)O has a solubility of 134 ± 37 µM (≈ 123 µg/mL) (filtration; sodium phosphate buffer; pH 7.4).
CC(C)(C)c1nc(-c2cccc(NS(=O)(=O)c3c(F)cccc3F)c2F)c(-c2ccnc(N)n2)s1: drug level “not detected” (MALDI mass spectrometry imaging; blood-brain barrier organoids; 10 µM, 24 h, 37 °C).
For CN1CCC[C@@H]1CCO[C@](C)(c1ccccc1)c1ccc(Cl)cc1, “log brain permeability-surface product” read -1.16 mL/g/s (rat; together with: cyclosporin A).
Under “decrease in Cmax”, Cc1[nH]c2ccccc2c1CCNCc1ccc(/C=C/C(=O)NO)cc1 is recorded as 45% (human; dose not given, high-fat meal; baseline: fasted).
Under tolerability, O=C(NC1CCNCC1)c1n[nH]cc1NC(=O)c1c(Cl)cccc1Cl is recorded as “not toxic” (patients, phase I and II; dose not given).
For CC(=O)Oc1ccccc1C(=O)O, the Cmax was 1650 µM (plasma; concentration not given).
With CO[C@H]1C[C@@H]2CC[C@@H](C)[C@@](O)(O2)C(=O)C(=O)N2CCCC[C@H]2C(=O)O[C@H]([C@H](C)C[C@@H]2CC[C@@H](OC(=O)C(C)(CO)CO)[C@H](OC)C2)CC(=O)[C@H](C)/C=C(\C)[C@@H](O)[C@@H](OC)C(=O)[C@H](C)C[C@H](C)/C=C/C=C/C=C/1C the AUC(0-t) was 1580 ± 270 ng·h/mL (human; intravenous, 25 mg once weekly, day 7 or 28).
For CC(=O)Nc1ccc(O)cc1, “urinary microRNA levels” read “increased” (rat, urine; oral, 1250 mg/kg, 24 h).
For Nc1nc2c(nc(Br)n2[C@@H]2O[C@@H]3COP(=O)(O)O[C@H]3[C@H]2O)c(=O)[nH]1, the log Kw was 1.17 (methanol/water).
For O=C(CCCCCCC(=O)Nc1ccccc1)NO, the AUC(0-inf) was 933 ng·h/mL (human; 200 mg, literature mean).
Under “patients with neutropenia”, CCN(CC)CCNC(=O)c1c(C)[nH]c(/C=C2\C(=O)Nc3ccc(F)cc32)c1C is recorded as 72% (patients; dose not given, all grades).
The absorption decrease of C#Cc1cccc(Nc2ncnc3cc(OCCOC)c(OCCOC)cc23)c1 is reported as 40 to 50% (concentration not given, together with: acid-reducing drugs).
Nc1ccn([C@@H]2CS[C@H](CO)O2)c(=O)n1 has a Cmax of 17 µM (plasma; concentration not given).
O=C(Nc1ncnc2c1ncn2[C@@H]1O[C@@H]2COP(=O)(O)OC2C1O)c1ccccc1 (stereo in doubt) — result for “Km or Ki”: 45.6 µM (PDE10; cyclic nucleotide hydrolysis, substrate or inhibitor, isothermal titration calorimetry).
The hemolysis of CC[C@H](C)[C@H](NC(=O)[C@H](CCCCN)NC(=O)[C@H](CCCCN)NC(=O)[C@H](Cc1ccccc1)NC(=O)[C@H](CC(C)C)NC(=O)[C@H](CCCCN)NC(=O)[C@@H](N)CCCCN)C(=O)N[C@@H](CC(C)C)C(=O)N[C@@H](CCCCN)C(=O)N[C@H](C(=O)N[C@@H](CC(C)C)C(N)=O)C(C)C is reported as 16 ± 2.9% (horse erythrocytes 5 % v/v; 150 µM).
For Nc1ccn([C@@H]2CS[C@H](CO)O2)c(=O)n1, the median Tmax was 3 h (healthy, mostly White or Black; 300 mg, single dose, fasted, together with: abacavir 600 mg, dolutegravir 50 mg).
For CO[C@]12C[C@@H](COC(=O)c3cncc(Br)c3)CN(C)[C@@H]1Cc1cn(C)c3cccc2c13, the Cmax was 0.0002 µM (plasma; concentration not given).
CN(C)CCC=C1c2ccccc2CCc2ccccc21: “maximum whole-body concentration” 0.68 ng/g (juvenile Chinook salmon, whole body wet weight; concentration not given, field-collected).
COC(=O)N[C@H](C(=O)N[C@@H](Cc1ccccc1)[C@@H](O)CN(Cc1ccc(-c2ccccn2)cc1)NC(=O)[C@@H](NC(=O)OC)C(C)(C)C)C(C)(C)C — result for “upper concentration limit”: over 0.85 mg/L (hyperbilirubinaemia risk; human, plasma; UGT1A1 inhibition).
For O=C(O)CNC(=O)c1ccccc1[131I], “percent injected dose” read 0.5 %ID (normal rat, blood; 60 min, together with: co-injected 99mTc-1).
CCS(=O)(=O)N1CC(CC#N)(n2cc(-c3ncnc4[nH]ccc34)cn2)C1: “AUC(0-24) at steady state” 1.3 µM·h (adult rheumatoid arthritis patients; oral, 4 mg once daily).
With COc1ccc(-n2nc(C(N)=O)c3c2C(=O)N(c2ccc(N4CCCCC4=O)cc2)CC3)cc1 the exposure increase was about 40% (human; concentration not given, together with: diltiazem; baseline: compound alone).
For Nc1nc(NC2CC2)c2ncn([C@H]3C=C[C@@H](CO)C3)c2n1, the AUC(0-t) was 12900 ng·h/mL (Japanese HIV-infected patients; oral, 600 mg single dose, fasted, together with: lamivudine 300 mg).
For Clc1ccccc1C(c1ccccc1)(c1ccccc1)n1ccnc1, the Cmax was 1.02 µM (plasma; concentration not given).

A few entries again:
For CC(=O)Oc1ccccc1C(=O)O, the Cmax was 1650 µM (plasma; concentration not given).
With CO[C@H]1C[C@@H]2CC[C@@H](C)[C@@](O)(O2)C(=O)C(=O)N2CCCC[C@H]2C(=O)O[C@H]([C@H](C)C[C@@H]2CC[C@@H](OC(=O)C(C)(CO)CO)[C@H](OC)C2)CC(=O)[C@H](C)/C=C(\C)[C@@H](O)[C@@H](OC)C(=O)[C@H](C)C[C@H](C)/C=C/C=C/C=C/1C the AUC(0-t) was 1580 ± 270 ng·h/mL (human; intravenous, 25 mg once weekly, day 7 or 28).
For CC(=O)Nc1ccc(O)cc1, “urinary microRNA levels” read “increased” (rat, urine; oral, 1250 mg/kg, 24 h).
